# Measurements of several laboratories.
# Each numbered part is a random draw from the data of one study; scales do not carry over between parts. Values joined by “and” are separate records of one study, mostly repeats; a detail may differ.
# Sequence of UniProt P00519 (whole entry, unmodified, looked up): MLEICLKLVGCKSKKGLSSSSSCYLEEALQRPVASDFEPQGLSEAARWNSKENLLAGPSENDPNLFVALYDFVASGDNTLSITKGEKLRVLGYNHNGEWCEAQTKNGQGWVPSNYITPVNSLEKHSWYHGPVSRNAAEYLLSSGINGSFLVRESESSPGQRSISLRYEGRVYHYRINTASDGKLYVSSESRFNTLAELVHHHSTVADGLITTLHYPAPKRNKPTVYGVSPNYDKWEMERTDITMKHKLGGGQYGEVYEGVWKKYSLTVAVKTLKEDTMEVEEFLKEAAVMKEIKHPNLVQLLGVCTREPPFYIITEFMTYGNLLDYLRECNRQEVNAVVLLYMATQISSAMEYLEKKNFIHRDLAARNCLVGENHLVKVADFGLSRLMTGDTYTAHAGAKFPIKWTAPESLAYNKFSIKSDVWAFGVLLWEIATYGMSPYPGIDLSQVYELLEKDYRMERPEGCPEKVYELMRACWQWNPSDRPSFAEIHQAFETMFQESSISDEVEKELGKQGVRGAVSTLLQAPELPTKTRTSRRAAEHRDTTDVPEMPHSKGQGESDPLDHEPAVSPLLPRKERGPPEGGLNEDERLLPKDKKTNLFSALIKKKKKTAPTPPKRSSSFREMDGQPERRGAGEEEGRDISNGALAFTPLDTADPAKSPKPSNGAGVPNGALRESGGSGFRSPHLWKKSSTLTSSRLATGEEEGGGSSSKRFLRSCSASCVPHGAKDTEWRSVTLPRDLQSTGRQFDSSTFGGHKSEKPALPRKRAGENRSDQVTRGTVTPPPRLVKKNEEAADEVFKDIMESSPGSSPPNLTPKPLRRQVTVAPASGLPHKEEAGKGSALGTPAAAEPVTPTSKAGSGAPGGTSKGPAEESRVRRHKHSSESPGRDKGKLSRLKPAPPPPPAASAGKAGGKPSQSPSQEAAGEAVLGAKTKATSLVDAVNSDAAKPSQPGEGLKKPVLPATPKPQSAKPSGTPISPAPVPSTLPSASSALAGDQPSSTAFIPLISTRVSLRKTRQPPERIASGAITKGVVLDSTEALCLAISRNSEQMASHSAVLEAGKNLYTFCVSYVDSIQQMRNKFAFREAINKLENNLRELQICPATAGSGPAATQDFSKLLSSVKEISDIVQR
# Sequence of UniProt P68400 (whole entry, looked up): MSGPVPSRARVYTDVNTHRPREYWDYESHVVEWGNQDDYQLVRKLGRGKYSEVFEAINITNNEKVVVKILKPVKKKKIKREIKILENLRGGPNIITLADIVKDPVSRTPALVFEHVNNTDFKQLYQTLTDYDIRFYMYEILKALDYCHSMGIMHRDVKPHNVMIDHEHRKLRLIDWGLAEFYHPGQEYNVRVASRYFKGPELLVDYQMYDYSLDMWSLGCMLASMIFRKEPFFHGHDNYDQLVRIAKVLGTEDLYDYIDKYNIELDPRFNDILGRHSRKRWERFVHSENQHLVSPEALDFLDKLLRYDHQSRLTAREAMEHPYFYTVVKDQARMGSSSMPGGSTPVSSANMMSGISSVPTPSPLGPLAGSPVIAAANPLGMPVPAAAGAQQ
# Sequence of UniProt Q12851 (whole entry, looked up): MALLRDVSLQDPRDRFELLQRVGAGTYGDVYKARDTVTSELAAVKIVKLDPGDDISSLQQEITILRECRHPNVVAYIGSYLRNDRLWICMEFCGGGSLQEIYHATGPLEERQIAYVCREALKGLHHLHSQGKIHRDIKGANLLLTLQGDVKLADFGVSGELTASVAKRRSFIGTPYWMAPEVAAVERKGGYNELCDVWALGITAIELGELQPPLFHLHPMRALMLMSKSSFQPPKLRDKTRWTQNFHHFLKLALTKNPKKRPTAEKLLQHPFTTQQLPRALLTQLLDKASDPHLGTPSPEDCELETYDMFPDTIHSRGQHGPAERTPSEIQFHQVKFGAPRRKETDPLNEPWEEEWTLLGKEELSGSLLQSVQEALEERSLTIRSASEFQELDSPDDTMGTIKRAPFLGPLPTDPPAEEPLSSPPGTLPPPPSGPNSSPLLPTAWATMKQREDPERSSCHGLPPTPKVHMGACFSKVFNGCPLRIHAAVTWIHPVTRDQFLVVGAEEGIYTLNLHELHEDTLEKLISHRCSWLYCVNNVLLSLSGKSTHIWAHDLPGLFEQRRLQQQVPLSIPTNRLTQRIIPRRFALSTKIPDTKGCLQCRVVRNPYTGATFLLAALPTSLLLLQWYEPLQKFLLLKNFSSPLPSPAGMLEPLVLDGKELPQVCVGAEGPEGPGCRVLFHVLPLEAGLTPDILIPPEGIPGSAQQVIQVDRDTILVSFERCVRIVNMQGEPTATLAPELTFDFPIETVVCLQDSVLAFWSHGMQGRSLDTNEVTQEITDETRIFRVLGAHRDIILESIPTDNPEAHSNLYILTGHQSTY
# Sequence of UniProt O43293 (whole entry, looked up): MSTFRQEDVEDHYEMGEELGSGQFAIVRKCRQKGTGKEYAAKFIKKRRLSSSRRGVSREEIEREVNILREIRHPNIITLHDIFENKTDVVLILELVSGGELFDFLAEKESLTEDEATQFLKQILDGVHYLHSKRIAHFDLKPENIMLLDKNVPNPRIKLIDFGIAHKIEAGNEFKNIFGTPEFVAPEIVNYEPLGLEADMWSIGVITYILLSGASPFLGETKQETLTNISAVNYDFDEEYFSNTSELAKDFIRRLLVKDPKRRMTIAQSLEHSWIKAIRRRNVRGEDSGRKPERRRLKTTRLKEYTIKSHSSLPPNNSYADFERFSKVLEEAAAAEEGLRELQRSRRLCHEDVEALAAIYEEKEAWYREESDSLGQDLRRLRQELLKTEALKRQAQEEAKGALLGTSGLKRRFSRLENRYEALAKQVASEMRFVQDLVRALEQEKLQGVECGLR
# Sequence of UniProt P48736 (whole entry, looked up): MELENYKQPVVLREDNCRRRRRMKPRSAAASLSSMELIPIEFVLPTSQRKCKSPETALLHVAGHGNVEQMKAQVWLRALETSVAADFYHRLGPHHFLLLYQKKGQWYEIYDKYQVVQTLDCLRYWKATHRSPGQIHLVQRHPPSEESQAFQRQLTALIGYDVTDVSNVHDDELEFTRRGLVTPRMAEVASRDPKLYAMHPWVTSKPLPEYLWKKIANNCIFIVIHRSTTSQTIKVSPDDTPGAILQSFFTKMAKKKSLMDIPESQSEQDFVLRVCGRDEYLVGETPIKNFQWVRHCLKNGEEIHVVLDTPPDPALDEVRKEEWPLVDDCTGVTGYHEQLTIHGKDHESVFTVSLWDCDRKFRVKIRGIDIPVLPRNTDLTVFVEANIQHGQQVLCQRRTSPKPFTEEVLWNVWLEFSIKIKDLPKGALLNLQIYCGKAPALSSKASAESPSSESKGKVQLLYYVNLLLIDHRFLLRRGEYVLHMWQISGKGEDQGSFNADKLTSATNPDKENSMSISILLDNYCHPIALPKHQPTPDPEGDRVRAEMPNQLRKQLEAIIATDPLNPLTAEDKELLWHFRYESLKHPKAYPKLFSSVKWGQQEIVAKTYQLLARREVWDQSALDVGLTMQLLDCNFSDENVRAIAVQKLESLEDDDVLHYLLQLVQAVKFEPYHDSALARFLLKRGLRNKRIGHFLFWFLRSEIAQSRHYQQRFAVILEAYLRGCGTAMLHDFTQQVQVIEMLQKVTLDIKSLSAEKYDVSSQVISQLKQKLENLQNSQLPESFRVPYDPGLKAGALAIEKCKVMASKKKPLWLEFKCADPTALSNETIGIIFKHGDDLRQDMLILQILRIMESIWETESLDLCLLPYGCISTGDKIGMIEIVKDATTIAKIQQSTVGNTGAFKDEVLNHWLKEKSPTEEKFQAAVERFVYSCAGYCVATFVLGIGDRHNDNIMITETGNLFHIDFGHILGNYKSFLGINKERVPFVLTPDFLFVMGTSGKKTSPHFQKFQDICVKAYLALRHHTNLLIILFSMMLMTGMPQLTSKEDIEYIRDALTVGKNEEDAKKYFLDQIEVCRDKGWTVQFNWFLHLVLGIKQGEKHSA
# Sequence of UniProt P25021 (whole entry, looked up): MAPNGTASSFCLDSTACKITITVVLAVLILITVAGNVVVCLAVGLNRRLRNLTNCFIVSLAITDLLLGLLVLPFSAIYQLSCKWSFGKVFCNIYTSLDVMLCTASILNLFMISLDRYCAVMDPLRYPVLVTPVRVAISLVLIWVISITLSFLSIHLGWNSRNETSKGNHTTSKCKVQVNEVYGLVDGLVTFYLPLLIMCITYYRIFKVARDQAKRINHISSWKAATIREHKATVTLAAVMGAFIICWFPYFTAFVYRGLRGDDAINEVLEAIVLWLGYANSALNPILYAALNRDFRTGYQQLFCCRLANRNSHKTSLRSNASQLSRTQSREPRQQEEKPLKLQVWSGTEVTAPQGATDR
# Sequence of UniProt O15075 (whole entry, looked up): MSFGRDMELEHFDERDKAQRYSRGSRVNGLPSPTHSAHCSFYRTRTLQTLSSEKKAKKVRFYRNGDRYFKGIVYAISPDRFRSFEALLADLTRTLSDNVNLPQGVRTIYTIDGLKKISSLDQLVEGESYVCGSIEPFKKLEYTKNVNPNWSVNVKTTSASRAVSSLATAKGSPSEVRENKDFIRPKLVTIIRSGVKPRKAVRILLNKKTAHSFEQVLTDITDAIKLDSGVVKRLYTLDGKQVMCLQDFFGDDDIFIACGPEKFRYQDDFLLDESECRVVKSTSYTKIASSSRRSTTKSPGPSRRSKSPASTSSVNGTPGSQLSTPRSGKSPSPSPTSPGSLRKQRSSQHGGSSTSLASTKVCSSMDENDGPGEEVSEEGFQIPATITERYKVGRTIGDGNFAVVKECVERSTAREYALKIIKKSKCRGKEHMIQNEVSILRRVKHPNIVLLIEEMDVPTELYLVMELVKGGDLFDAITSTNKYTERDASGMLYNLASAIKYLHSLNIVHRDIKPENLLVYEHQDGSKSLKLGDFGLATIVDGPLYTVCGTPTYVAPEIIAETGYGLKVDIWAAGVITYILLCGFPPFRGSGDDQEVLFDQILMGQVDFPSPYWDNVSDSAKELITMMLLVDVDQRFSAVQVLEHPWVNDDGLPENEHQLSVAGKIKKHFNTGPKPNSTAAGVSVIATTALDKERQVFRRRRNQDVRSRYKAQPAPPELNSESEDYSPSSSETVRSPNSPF

# Series 1
# Compound: C=CC(=O)N1CCC([C@@H]2CCNc3c(C(N)=O)c(-c4ccc(Oc5ccccc5)cc4)nn32)CC1
# Effect on: enzyme activity
# Action: inhibitor
# Tested at: 1 µM
target,inhibition [%]
"LIM domain kinase 2 (LIMK2, Homo sapiens, UniProt P53671)",0
"Serine/threonine-protein kinase Chk2 (CHEK2, Homo sapiens, UniProt O96017)",0
"Serine/threonine-protein kinase 35 (STK35, Homo sapiens, UniProt Q8TDR2)",0
"Mitogen-activated protein kinase kinase kinase 14 (MAP3K14, Homo sapiens, UniProt Q99558)",0
"Casein kinase II subunit alpha (CSNK2A1, Homo sapiens, UniProt P68400)",19
"Phosphatidylinositol 4,5-bisphosphate 3-kinase catalytic subunit gamma isoform (PIK3CG, Homo sapiens, UniProt P48736)",0
"Proto-oncogene tyrosine-protein kinase receptor Ret (RET, Homo sapiens, UniProt P07949)",0
"Mitogen-activated protein kinase kinase kinase kinase 2 (MAP4K2, Homo sapiens, UniProt Q12851)",5
"LIM domain kinase 1 (LIMK1, Homo sapiens, UniProt P53667)",25
"Bone morphogenetic protein receptor type-1A (BMPR1A, Homo sapiens, UniProt P36894)",5
"Serine/threonine-protein kinase MRCK alpha (CDC42BPA, Homo sapiens, UniProt Q5VT25)",0
"Tyrosine-protein kinase ITK/TSK (ITK, Homo sapiens, UniProt Q08881)",60
"Megakaryocyte-associated tyrosine-protein kinase (MATK, Homo sapiens, UniProt P42679)",11

# Series 2
# Compound: COc1ccc2[nH]c3c4[nH]c5ccc(OC)cc5c4c4c(c3c2c1)C(=O)NC4=O
# Tested at: 1 µM
target,method,item,setting,relative to,remaining binding
"Dual specificity mitogen-activated protein kinase kinase 5 (MAP2K5, Homo sapiens, UniProt Q13163)",competitive binding panel,MEK5,,vehicle,0.7%
"Serine/threonine-protein kinase 38-like (STK38L, Homo sapiens, UniProt Q9Y2H1)",competitive binding panel,NDR2,,vehicle,72%
"Tyrosine-protein kinase ABL1 (ABL1, Homo sapiens, UniProt P00519, H396P)",competitive binding scan,,,,34% and 65%
"Tyrosine-protein kinase ABL1 (ABL1, Homo sapiens, UniProt P00519)","competitive binding, scanMAX",,"nonphosphorylated, 1000 nM",,58%
"RAC-alpha serine/threonine-protein kinase (AKT1, Homo sapiens, UniProt P31749)",competitive binding panel,,,vehicle,72%
"Mitogen-activated protein kinase kinase kinase kinase 5 (MAP4K5, Homo sapiens, UniProt Q9Y4K4)",competitive binding panel,,,vehicle,51%
"Serine/threonine-protein kinase Sgk1 (SGK1, Homo sapiens, UniProt O00141)",competitive binding,,SGK,,6.8%
"Serine/threonine-protein kinase DCLK1 (DCLK1, Homo sapiens, UniProt O15075)",competitive binding panel,DCAMKL1,,vehicle,90%
"Protein kinase C theta type (PRKCQ, Homo sapiens, UniProt Q04759)",competitive binding panel,,,vehicle,44%
"Death-associated protein kinase 3 (DAPK3, Homo sapiens, UniProt O43293)",competitive binding panel,,,vehicle,4.8%
"Serine/threonine-protein kinase TNNI3K (TNNI3K, Homo sapiens, UniProt Q59H18)",competitive binding panel,,,vehicle,90%
"Dual specificity tyrosine-phosphorylation-regulated kinase 2 (DYRK2, Homo sapiens, UniProt Q92630)",competitive binding panel,,,vehicle,50%
"3-phosphoinositide-dependent protein kinase 1 (PDPK1, Homo sapiens, UniProt O15530)",competitive binding panel,,,vehicle,25%
"STE20/SPS1-related proline-alanine-rich protein kinase (STK39, Homo sapiens, UniProt Q9UEW8)",competitive binding panel,,,vehicle,100%
"Hepatocyte growth factor receptor (MET, Homo sapiens, UniProt P08581)",competitive binding panel,,,vehicle,78%
"Serine/threonine-protein kinase SIK1 (SIK1, Homo sapiens, UniProt P57059)",competitive binding,,SIK,,67%

# Series 3
# Compound: O=C(Nc1ccc(Cl)cc1)c1ccccc1NCc1ccncc1
# Effect on: enzyme activity
# Action: inhibitor
# Tested at: 0.5 µM
# Relative to: control
target,remaining activity [%]
"Serine/threonine-protein kinase 38 (STK38, Homo sapiens, UniProt Q15208)",97.5
"Mitogen-activated protein kinase kinase kinase kinase 2 (MAP4K2, Homo sapiens, UniProt Q12851)",97.3
"Casein kinase I isoform alpha (CSNK1A1, Homo sapiens, UniProt P48729)",88.1
"cGMP-dependent protein kinase 1 (PRKG1, Homo sapiens, UniProt Q13976)",86.8
"RAC-gamma serine/threonine-protein kinase (AKT3, Homo sapiens, UniProt Q9Y243)",97.9
"Dual specificity mitogen-activated protein kinase kinase 6 (MAP2K6, Homo sapiens, UniProt P52564)",117
"Leucine-rich repeat serine/threonine-protein kinase 2 (LRRK2, Homo sapiens, UniProt Q5S007)",98.7
"Ephrin type-A receptor 5 (EPHA5, Homo sapiens, UniProt P54756)",82.1
"Mitogen-activated protein kinase 12 (MAPK12, Homo sapiens, UniProt P53778)",97.3
"Protein kinase C iota type (PRKCI, Homo sapiens, UniProt P41743)",98.7
"MAP kinase-interacting serine/threonine-protein kinase 2 (MKNK2, Homo sapiens, UniProt Q9HBH9)",82.3
"Cyclin-dependent kinase 9, with cyclin T1 (CDK9, Homo sapiens, UniProt P50750)",81.9
"Serine/threonine-protein kinase Chk1 (CHEK1, Homo sapiens, UniProt O14757)",96.4
"Mitogen-activated protein kinase 13 (MAPK13, Homo sapiens, UniProt O15264)",95.6
"Casein kinase II subunit alpha (CSNK2A1, Homo sapiens, UniProt P68400)",91.1
"Mast/stem cell growth factor receptor Kit (KIT, Homo sapiens, UniProt P10721)",33.6
"Protein kinase C delta type (PRKCD, Homo sapiens, UniProt Q05655)",84.7
"Interleukin-1 receptor-associated kinase 4 (IRAK4, Homo sapiens, UniProt Q9NWZ3)",104
"Serine/threonine-protein kinase PLK2 (PLK2, Homo sapiens, UniProt Q9NYY3)",99.3
"Tyrosine-protein kinase BTK (BTK, Homo sapiens, UniProt Q06187)",98.9
"Serine/threonine-protein kinase Nek4 (NEK4, Homo sapiens, UniProt P51957)",85.8
"Serine/threonine-protein kinase WNK2 (WNK2, Homo sapiens, UniProt Q9Y3S1)",101
"Tyrosine-protein kinase Lyn (LYN, Homo sapiens, UniProt P07948)",75.1

# Series 4
# Compound: CNC(=O)c1cc(C(=O)N[C@H]2[C@@H]3COC[C@@H]32)cc2c1O[C@H](CF)[C@H]2c1ccccc1
# Tested at: 10 µM
target,effect on,method,inhibition
"Beta-3 adrenergic receptor (ADRB3, Homo sapiens, UniProt P13945)",binding,radioligand binding,15.5%
"D(1A) dopamine receptor (DRD1, Homo sapiens, UniProt P21728)",binding,radioligand binding,9.7%
"Alpha-1B adrenergic receptor (ADRA1B, Homo sapiens, UniProt P35368)",binding,radioligand binding,1.49%
"Histamine H1 receptor (HRH1, Homo sapiens, UniProt P35367)",binding,radioligand binding,-26.9%
"Alpha-1D adrenergic receptor (ADRA1D, Homo sapiens, UniProt P25100)",binding,radioligand binding,3.51%
"Histamine H4 receptor (HRH4, Homo sapiens, UniProt Q9H3N8)",binding,radioligand binding,9.36%
"Muscarinic acetylcholine receptor M4 (CHRM4, Homo sapiens, UniProt P08173)",binding,radioligand binding,2.78%
"Histamine H2 receptor (HRH2, Homo sapiens, UniProt P25021)",binding,radioligand binding,-3.94%
"Muscarinic acetylcholine receptor M2 (CHRM2, Homo sapiens, UniProt P08172)",binding,radioligand binding,-5.52%
"5-hydroxytryptamine receptor 3A (HTR3A, Homo sapiens, UniProt P46098)",cell-free assay,,20.2%
"5-hydroxytryptamine receptor 7 (HTR7, Homo sapiens, UniProt P34969)",binding,radioligand binding,13.6%
"Alpha-2B adrenergic receptor (ADRA2B, Homo sapiens, UniProt P18089)",binding,radioligand binding,12.5%
"Alpha-2C adrenergic receptor (ADRA2C, Homo sapiens, UniProt P18825)",binding,radioligand binding,8.26%

# For quick reference, copied from above (series 3):
target,remaining activity [%]
"Mitogen-activated protein kinase 12 (MAPK12, Homo sapiens, UniProt P53778)",97.3
"Protein kinase C iota type (PRKCI, Homo sapiens, UniProt P41743)",98.7
"MAP kinase-interacting serine/threonine-protein kinase 2 (MKNK2, Homo sapiens, UniProt Q9HBH9)",82.3
"Cyclin-dependent kinase 9, with cyclin T1 (CDK9, Homo sapiens, UniProt P50750)",81.9
"Serine/threonine-protein kinase Chk1 (CHEK1, Homo sapiens, UniProt O14757)",96.4
"Mitogen-activated protein kinase 13 (MAPK13, Homo sapiens, UniProt O15264)",95.6
"Casein kinase II subunit alpha (CSNK2A1, Homo sapiens, UniProt P68400)",91.1
